Measurements collected from several papers.
Lines come from different studies, so protocols differ. Values joined by “and” are separate records of one study, mostly repeats; a detail may differ. ± gives the spread as reported.

CN1CCCNC(=O)c2cccc(c2)C(=O)NCCCN(C)CCCNc2cccc3c2C(=O)c2cccc(c2C3=O)NCCC1
log2 fold change (SAS; RNA-Seq, measured: NSUN2 mRNA; 1 µM, 6 h; relative to: untreated cells): -0.543

CCN(C(=O)c1cc(F)ccc1Oc1nncnc1N1CCC2(C1)CN([C@H](CCCN(C)CCOC)C(C)C)C2)C(C)C
GI50 (RD; muscle; 72 h): > 10 µM

Cc1ncsc1-c1ccc(C(C)NC(=O)C2CC(O)CN2C(=O)C(NC(=O)CCCCCCCCCCN2CCCC(Nc3ncc(Cl)c(Nc4ccccc4S(=O)(=O)C(C)C)n3)C2)C(C)(C)C)cc1 (stereo not shown)
log2 fold change (22Rv1; RNA-seq, measured: ZC3H10 mRNA; concentration not given; relative to: DMSO): -2.64

CCOc1cncc(-c2ccc(NC(=O)C3(c4ccnc(NS(=O)(=O)C5CC5)n4)CCOCC3)nc2)n1
IC50 (BT-474; cell growth or viability, ATP luminescence; 72 h): 10 µM

Cn1ncc2cc(-c3cncc(Cl)c3N3CCC4(CCNC4=O)CC3)ccc21
log2 fold change (LS174T; gene expression, microarray, measured: PADI1 mRNA; concentration not given, 4 h; relative to: untreated cells): 1.36

C#CCOC(=O)[C@@]1(C)C=C(C(=O)Nc2cccc(C(=O)Nc3ccc(C)c(Nc4nccc(-c5cccnc5)n4)c3)c2)C(=O)CC1
phospho-c-Jun level (SH-SY5Y MKK7 active; western blot, measured: phospho-c-Jun Ser73; 30 µM, unit not given; relative to: doxycycline without inhibitor): 0.104

[Cl-].[Cl-].[Ru+2].c1ccc(-c2ccccn2)nc1.c1ccc(-c2ccccn2)nc1.c1ccc2cc3nc4c5cccnc5c5ncccc5c4nc3cc2c1
phototherapeutic index (SK-MEL-28; light 633 nm, oxygen 18.5%; relative to: dark EC50 over light EC50): 221

CC(C)Cc1ccc(C(C)C(=O)[Se]CC(=O)Nc2cccc(C(F)(F)F)c2)cc1 (stereo not shown)
TGI (NCI60 breast subpanel mean; cell growth): 4.33 µM

Cn1c(=O)n(C2CCC(=O)NC2=O)c2ccc(C3CCN(CC(=O)Nc4cccc(CS(=O)(=O)N5CC[C@H](Nc6cccc(-c7sc(C(=O)O)c(OCC(=O)O)c7Cl)c6)CC5(C)C)c4)CC3)cc21 (stereo partly shown)
fold change (B16-F10; HTRF, measured: phospho-STAT1 Tyr701; 1.1 µM, with: IFN-γ; relative to: DMSO): 5.57 and 6.19 and 5.74 and 5.51 and 5.69 and 5.53

Cc1cccc(-c2cccc(C)n2)n1.Cc1cccc(-c2cccc(C)n2)n1.F[P-](F)(F)(F)(F)F.F[P-](F)(F)(F)(F)F.[Ru+2].c1ccc(-c2nc3c4cccnc4c4ncccc4c3[nH]2)cc1
EC50 (SK-MEL-28; cell viability; 1% O2, with: green light 523 nm, 100 J/cm2): 132 ± 10 µM

CO[C@@H]1[C@@H](OC(N)=O)[C@@H](O)[C@H](Oc2ccc3c(O)c(NC(=O)c4ccc(O)c(CC=C(C)C)c4)c(=O)oc3c2C)OC1(C)C
colony count (DLD-1 BRCA2-/-; 100 µM, replicate 2): 0.1

O=C(N[C@@H](Cc1ccc(OCCCCC2CCNCC2)cc1)C(=O)O)c1nc2ccccc2o1.O=C(O)C(F)(F)F
ADP-induced aggregation (platelets; impedance aggregometry; human, diluted whole blood; 150 nM, with: ADP; relative to: untreated): 0.127 and 0.275

O=C(Nc1nnc2c1c(-c1ccc(Cl)cc1)nc1sc(=Cc3ccco3)c(=O)n12)c1ccccc1 (mixture of isomers)
mean growth percent (NCI60 cell panel; SRB; 10 µM): 47.9%

CCN(CC)CC(=O)Nc1cccc(-n2cc(-c3ccc4ccc(-c5cn(-c6cccc(NC(=O)CN(CC)CC)c6)nn5)cc4c3)nn2)c1
fold regulation (RCC4; PCR angiogenesis array, measured: MMP9; 5 x IC50, 4 h, normoxia; relative to: untreated): -1.32

COc1ccccc1-c1ccncc1C(=O)Nc1nnc(OCc2ccc(Cl)cc2)s1
colony survival (MDA-MB-231; 6 µM, mean of 3 replicates; relative to: untreated): 84.2%

CC(C)c1ccc(N(C)c2ccc3c(c2)OCC[C@H]3CNc2cnccc2C(=O)O)cc1
IC50 (NCI-H716; cell growth or viability, ATP luminescence; 7 days): 0.00951 µM

Cc1cc(NC2CCN(C)CC2)ccc1-c1cc2c(N3CCC[C@H](C(=O)N[C@H](C)c4ccccc4)C3)ncnc2[nH]1
inhibition (NCI-H3122; cell growth or viability, MTT; 0.2 µg/mL, 72 h): 46.5%

Cc1cccc(-c2cccc(C)n2)n1.Cc1cccc(-c2cccc(C)n2)n1.F[P-](F)(F)(F)(F)F.F[P-](F)(F)(F)(F)F.[Ru+2].c1ccc2c(c1)Cc1cc(-c3nc4c5cccnc5c5ncccc5c4[nH]3)ccc1-2
EC50 (SK-MEL-28; cell growth or viability, resazurin; dark): 20.5 µM

O=C(C[Se]C(=O)c1ccc2ccccc2n1)Nc1cccc(C(F)(F)F)c1
TGI (NCI60 breast subpanel mean; cell growth): 4.52 µM

CNc1ncnc2c1ncn2C1OC(CO)C(O)C1O (stereo not shown)
AP-TGFα release (mock-transfected cells; TGFα shedding, agonist; 100 µM; relative to: unstimulated vehicle control): 3.76% and 4.09% and 3.91%

CN1CC[C@@H](COc2cnc(C#N)cc2-c2ccn3nc(NC(=O)C4CC4)cc3c2)C1
number of reduced transcripts (human PBMC, myeloid cells; single-cell RNA-seq; 10 µM, with: LPS; relative to: LPS alone): 22 transcripts

COC(=O)c1cc(NC2=NC(=O)C(=Cc3ccc(C)cc3)S2)ccc1OC(C)=O
metabolite level (MCF7; GC-MS, measured: L-Isoleucine; 1 µM; relative to: DMSO): 0.34 fold change

CNS(=O)(=O)Nc1nccc(Cc2c(C)c3ccc(Oc4ncccc4F)cc3oc2=O)c1F
IC50 (A-431; cell viability; 7 days): 0.408 µM

O=C(C[Se]C(=O)c1cccnc1Nc1cccc(C(F)(F)F)c1)Nc1cccc(C(F)(F)F)c1
mean growth percent (NCI60 prostate subpanel (PC-3, DU-145); cell growth; 10 µM, 48 h, one-dose): -89.8%

CSCC[C@H](NC(=O)[C@H](CCC(N)=O)NC(=O)[C@H](CCCCN)NC(=O)[C@H](CCCNC(=N)N)NC(=O)[C@H](Cc1ccc(O)cc1)NC(=O)[C@H](CCCNC(=N)N)NC(=O)[C@H](CO)NC(=O)[C@H](Cc1ccc(O)cc1)NC(=O)[C@H](CO)NC(=O)[C@H](CC(=O)O)NC(=O)[C@@H](NC(=O)[C@@H](N)Cc1ccccc1)[C@@H](C)O)C(=O)N[C@@H](C)C(=O)N[C@H](C(=O)N[C@@H](CCCCN)C(=O)N[C@@H](CCCCN)C(=O)N[C@@H](Cc1ccc(O)cc1)C(=O)N[C@@H](CC(C)C)C(=O)N[C@@H](C)C(=O)N[C@@H](C)C(=O)N[C@H](C(=O)N[C@@H](CC(C)C)C(=O)NCC(=O)N[C@@H](CCCCN)C(=O)N[C@@H](CCCNC(=N)N)C(=O)N[C@@H](Cc1ccc(O)cc1)C(=O)N[C@@H](CCCCN)C(=O)N[C@@H](CCC(N)=O)C(=O)N[C@@H](CCCCn1cc(C[C@H](NC(=O)CNC(=O)[C@H](CO)NC(=O)[C@H](CCCNC(=N)N)NC(=O)[C@H](CO)NC(=O)[C@H](CC(C)C)NC(=O)[C@H](CC(C)C)NC(=O)CNC(=O)[C@H](C)NC(=O)[C@H](CC(C)C)NC(=O)[C@H](CCCNC(=N)N)NC(=O)[C@H](Cc2c[nH]cn2)NC(=O)[C@@H](NC(=O)[C@@H](N)C(C)C)[C@@H](C)O)C(=O)N[C@H](C(=O)N[C@H](C(=O)N[C@@H](CCCCN)C(=O)N[C@@H](CC(N)=O)C(=O)N[C@@H](CC(N)=O)C(=O)N[C@@H](Cc2ccccc2)C(=O)N[C@H](C(=O)N2CCC[C@H]2C(=O)N[C@H](C(=O)N[C@@H](CC(N)=O)C(=O)N[C@H](C(=O)NCC(=O)N[C@@H](CO)C(=O)N[C@@H](CCCCN)C(=O)N[C@@H](C)C(=O)N[C@@H](Cc2ccccc2)C(N)=O)C(C)C)[C@@H](C)O)C(C)C)C(C)C)C(C)C)nn1)C(=O)N[C@H](C(=O)N[C@@H](CCCCN)C(=O)N[C@@H](CC(N)=O)C(=O)N[C@@H](CCCCN)C(N)=O)C(C)C)C(C)C)C(C)C
pA2 (transfected COS-7 cells; cAMP accumulation, antagonist; with: PACAP-27): 5.59

COc1ccc2c(c1)c(CC(=O)[Se]CC(=O)Nc1cccc(C(F)(F)F)c1)c(C)n2C(=O)c1ccc(Cl)cc1
GI50 (NCI60 prostate subpanel (PC-3, DU-145); cell growth, inhibitor; five-dose): 1.67 µM

CCCC(CCC)C(=O)OCc1cn(-c2cc3ccccc3oc2=O)nn1
growth percentage (SNB-19; 10 µM, CNS cancer cell line, NCI60): 96%

COC1CN([C@H]2CC[C@H]([C@@]3(C)Oc4c(Cl)cc(C(=O)NCc5c(SC)cc(C)[nH]c5=O)c(C)c4O3)CC2)C1
log2 fold change (RNA-seq, measured: STAC; human, whole blood; dose not given, 24 h; relative to: pretreatment baseline): 3.16

Cc1n[nH]c(C)c1CCCOc1cc(C(=O)NCCCCC(NC(=O)CN2CCN(CC(=O)[O-])CCN(CC(=O)[O-])CCN(CC(=O)[O-])CC2)C(=O)NCC2CCC(C(=O)NC(Cc3ccc4ccccc4c3)C(=O)NCCCCC(NC(=O)NC(CCC(=O)O)C(=O)O)C(=O)O)CC2)ccc1F.[177Lu+3] (stereo not shown)
uptake (PC-3 (PSMA-negative)): 0.91 ± 0.06%

COC(=O)c1cc(NC2=NC(=O)C(=Cc3ccc(N(C)C)cc3)S2)ccc1OC(C)=O
mRNA level (A549; measured: YWHAH; 2.93 µM, 24 h; relative to: DMSO): 169 fold change

Cc1cc(NC2CCN(C)CC2)ccc1-c1cc2c(N3CCC[C@H](C(=O)NCc4ccc(OC(F)(F)F)cc4)C3)ncnc2[nH]1
inhibition (NCI-H3122; cell growth or viability, MTT; 5 µg/mL, 72 h): 87.7%

A few entries again:
CN1CC[C@@H](COc2cnc(C#N)cc2-c2ccn3nc(NC(=O)C4CC4)cc3c2)C1
number of reduced transcripts (human PBMC, myeloid cells; single-cell RNA-seq; 10 µM, with: LPS; relative to: LPS alone): 22 transcripts

COC(=O)c1cc(NC2=NC(=O)C(=Cc3ccc(C)cc3)S2)ccc1OC(C)=O
metabolite level (MCF7; GC-MS, measured: L-Isoleucine; 1 µM; relative to: DMSO): 0.34 fold change

CNS(=O)(=O)Nc1nccc(Cc2c(C)c3ccc(Oc4ncccc4F)cc3oc2=O)c1F
IC50 (A-431; cell viability; 7 days): 0.408 µM

O=C(C[Se]C(=O)c1cccnc1Nc1cccc(C(F)(F)F)c1)Nc1cccc(C(F)(F)F)c1
mean growth percent (NCI60 prostate subpanel (PC-3, DU-145); cell growth; 10 µM, 48 h, one-dose): -89.8%

CSCC[C@H](NC(=O)[C@H](CCC(N)=O)NC(=O)[C@H](CCCCN)NC(=O)[C@H](CCCNC(=N)N)NC(=O)[C@H](Cc1ccc(O)cc1)NC(=O)[C@H](CCCNC(=N)N)NC(=O)[C@H](CO)NC(=O)[C@H](Cc1ccc(O)cc1)NC(=O)[C@H](CO)NC(=O)[C@H](CC(=O)O)NC(=O)[C@@H](NC(=O)[C@@H](N)Cc1ccccc1)[C@@H](C)O)C(=O)N[C@@H](C)C(=O)N[C@H](C(=O)N[C@@H](CCCCN)C(=O)N[C@@H](CCCCN)C(=O)N[C@@H](Cc1ccc(O)cc1)C(=O)N[C@@H](CC(C)C)C(=O)N[C@@H](C)C(=O)N[C@@H](C)C(=O)N[C@H](C(=O)N[C@@H](CC(C)C)C(=O)NCC(=O)N[C@@H](CCCCN)C(=O)N[C@@H](CCCNC(=N)N)C(=O)N[C@@H](Cc1ccc(O)cc1)C(=O)N[C@@H](CCCCN)C(=O)N[C@@H](CCC(N)=O)C(=O)N[C@@H](CCCCn1cc(C[C@H](NC(=O)CNC(=O)[C@H](CO)NC(=O)[C@H](CCCNC(=N)N)NC(=O)[C@H](CO)NC(=O)[C@H](CC(C)C)NC(=O)[C@H](CC(C)C)NC(=O)CNC(=O)[C@H](C)NC(=O)[C@H](CC(C)C)NC(=O)[C@H](CCCNC(=N)N)NC(=O)[C@H](Cc2c[nH]cn2)NC(=O)[C@@H](NC(=O)[C@@H](N)C(C)C)[C@@H](C)O)C(=O)N[C@H](C(=O)N[C@H](C(=O)N[C@@H](CCCCN)C(=O)N[C@@H](CC(N)=O)C(=O)N[C@@H](CC(N)=O)C(=O)N[C@@H](Cc2ccccc2)C(=O)N[C@H](C(=O)N2CCC[C@H]2C(=O)N[C@H](C(=O)N[C@@H](CC(N)=O)C(=O)N[C@H](C(=O)NCC(=O)N[C@@H](CO)C(=O)N[C@@H](CCCCN)C(=O)N[C@@H](C)C(=O)N[C@@H](Cc2ccccc2)C(N)=O)C(C)C)[C@@H](C)O)C(C)C)C(C)C)C(C)C)nn1)C(=O)N[C@H](C(=O)N[C@@H](CCCCN)C(=O)N[C@@H](CC(N)=O)C(=O)N[C@@H](CCCCN)C(N)=O)C(C)C)C(C)C)C(C)C
pA2 (transfected COS-7 cells; cAMP accumulation, antagonist; with: PACAP-27): 5.59
